Published values from different studies.
± marks the error that the study gave. In brackets after ≈: the same amount, converted by molar mass.

For `C=Cc1c(C)c2cc3nc(c(CC(=O)[O-])c4[n-]c(cc5nc(cc1[n-]2)C(C)=C5CC)c(C)c4C(=O)[O-])C(CCC(=O)[O-])C3C.[Cu+2].[Na+].[Na+].[Na+]` (stereo not shown), “blood urea nitrogen” read 24 ± 9.12 mg/dL (Wistar rat, female; oral, 1000 mg/kg daily, 28 days).
The thermodynamic solubility of `CN1C(=O)[C@@H]2NC(=O)[C@@H]3NC(=O)[C@@H](c4ccc(O)cc4)NC(=O)[C@H](NC(=O)C(N)c4ccc(O)cc4)Cc4c[nH]c5cc(ccc45)-c4cc3cc(c4O)Oc3ccc(cc3)C[C@H]1C(=O)N[C@@H](C(=O)NCCCN)c1ccc(O)c(c1)Oc1ccc2cc1` (stereo partly shown) is reported as 28.4 µg/mL (≈ 24.1 µM) (saline; 24 h, 25 °C).
With `C=Cc1c(C)c2cc3nc(c(CC(=O)O)c4[nH]c(cc5nc(cc1[nH]2)C(C)=C5CC)c(C)c4C(=O)O)[C@@H](CCC(=O)NCCCC[C@H](NC(C)=O)C(=O)N[C@@H](Cc1ccccc1)C(=O)N[C@@H](Cc1ccccc1)C(=O)N[C@H](C(=O)N[C@@H](CC(C)C)C(=O)N[C@@H](CCCCN)C(=O)N[C@@H](CO)C(=O)NCC(=O)N[C@@H](CCC(N)=O)C(=O)N[C@@H](Cc1ccc(O)cc1)C(=O)N[C@@H](C)C(=O)N[C@@H](CO)C(=O)N[C@@H](Cc1ccc(O)cc1)C(=O)N[C@@H](Cc1c[nH]cn1)C(=O)N[C@@H](CS)C(=O)N[C@@H](Cc1c[nH]c2ccccc12)C(=O)N[C@@H](CS)C(=O)N[C@@H](Cc1c[nH]c2ccccc12)C(=O)N[C@@H](CCCNC(=N)N)C(=O)N[C@@H](CC(=O)O)C(=O)N1CCC[C@H]1C(=O)NCC(=O)N[C@@H](CCCNC(=N)N)C(=O)N[C@@H](CO)C(=O)NCC(=O)NCC(=O)N[C@@H](CO)C(=O)N[C@@H](CCCCN)C(N)=O)C(C)C)[C@@H]3C` the blood concentration was 99.2 µg/mL (mouse, blood; 6 h).
For `O=C1NC2(CC2)COc2ncc(F)cc2[C@H]2COCCN2c2ccn3ncc1c3n2`, “organ-to-body weight ratio” read 0.676 ± 0.067% (Sprague-Dawley rat, male, kidneys; oral, 10 mg/kg/day, 4 weeks dosing, end of recovery).
`CCCC[C@H]1C(=O)N(C)[C@@H](CCCC)C(=O)N[C@@H](CCCNC(=O)CN2CCN(CC(=O)O)CCN(CC(=O)O)CCN(CC(=O)O)CC2)C(=O)N[C@H](C(=O)NCC(N)=O)CSCC(=O)N[C@@H](Cc2ccc(O)cc2)C(=O)N(C)[C@@H](C)C(=O)N[C@@H](CC(N)=O)C(=O)N2CCC[C@H]2C(=O)N[C@@H](Cc2c[nH]cn2)C(=O)N[C@@H](CC(C)C)C(=O)N(C)CC(=O)N[C@@H](Cc2c[nH]c3ccccc23)C(=O)N[C@@H](CO)C(=O)N[C@@H](Cc2c[nH]c3ccccc23)C(=O)N1C` [gallium-68 labelled] has a tissue uptake of 2.55 ± 0.83 %ID/g (NOD/SCID mice with CHO-hPD-L1 xenograft, intestine; 120 min post injection).
`O=C1c2ccccc2CCCN1CCCCN1CCN(c2cccc(Cl)c2Cl)CC1` has an intrinsic clearance of greater than 50 mL/min/g (mouse liver microsomes; 0.5 µM).
The free Ca2+ of `C=C/C=C/C[C@@H](C)[C@@H](O)[C@H]1C(=O)N[C@@H](CC)C(=O)N(C)CC(=O)N(C)[C@@H](CC(C)C)C(=O)N[C@@H](C(C)C)C(=O)N(C)[C@@H](CC(C)C)C(=O)N[C@@H](C)C(=O)N[C@H](C)C(=O)N(C)[C@@H](CC(C)C)C(=O)N(C)[C@@H](CC(C)C)C(=O)N(C)[C@@H](C(C)C)C(=O)N1C` is reported as 1.2 ± 0.07 mmol/L (calcium-selective electrode; Wistar Kyoto rat, male, heparinized whole blood; ip, 0.5 mg/kg/day, day 28).
`CC[C@H](C)[C@H](NC(=O)[C@H](CCCNC(=N)N)NC(=O)[C@H](CCCCN)NC(=O)[C@H](Cc1ccc(O)cc1)NC(=O)[C@H](CC(=O)O)NC(=O)[C@H](C)NC(=O)CNC(=O)CCOCCOCCOCCNC(=O)CN1CCN(CC(=O)O)CCN(CC(=O)O)CCN(CC(=O)O)CC1)C(=O)N[C@H](C(=O)N[C@@H](CC(C)C)C(=O)N[C@@H](CCCCN)C(=O)N[C@H](C(=O)N[C@@H](CC(N)=O)C(N)=O)C(C)C)[C@@H](C)O` [copper-64 labelled] has a tissue uptake of 0.058 ± 0.009 %ID/g (ex vivo gamma counting; C57BL/6J male mice, B16-F10 tumour, brain; intravenous, 1.85 MBq, 100 min).
`CC(C)[C@@H]1NC(=O)CNC(=O)[C@H](CC(N)=O)NC(=O)[C@H](CCCNC(=N)N)NC(=O)[C@H](Cc2ccc(O)cc2)NC(=O)[C@H](C(C)C)NC(=O)[C@@H](NC(=O)[C@@H](NC(=O)[C@H](CC(N)=O)NC(=O)[C@H](Cc2c[nH]c3ccccc23)NC(=O)[C@H](C)NC(=O)[C@H](Cc2ccccc2)NC(=O)CNC(=O)[C@H](CCCCN)NC(=O)[C@H](Cc2ccccc2)NC(=O)[C@H](Cc2ccccc2)NC(=O)[C@H](CCCCN)NC(=O)OCC2c3ccccc3-c3ccccc32)C(C)C)CSSC[C@@H](C(=O)N[C@@H](Cc2c[nH]cn2)C(=O)N[C@@H](CCCNC(=N)N)C(=O)N[C@@H](CCCNC(=N)N)C(=O)N[C@@H](C)C(=O)N[C@@H](CC(N)=O)C(N)=O)NC(=O)[C@H](C(C)C)NC(=O)[C@H](CCCNC(=N)N)NC1=O` has a spasm score of 0 (ICR mouse; ip, 5 mg/kg; direction not given).
With `CCCCCCCCCC(=O)N[C@@H](CCCNC(=N)N)C(=O)N[C@@H](Cc1c[nH]c2ccccc12)C(=O)N[C@@H](CCCCN)C(=O)N[C@H](C(=O)N[C@@H](Cc1ccccc1)C(=O)N[C@@H](CCCCN)C(=O)N[C@@H](CCCCN)C(=O)N[C@H](C(=O)N[C@@H](CCC(=O)O)C(=O)N[C@@H](CCCCN)C(=O)N[C@H](C(=O)NCC(=O)N[C@@H](CCC(N)=O)C(=O)N[C@@H](CC(N)=O)C(=O)N[C@H](C(=O)N[C@@H](CCCNC(=N)N)C(=O)N[C@@H](CC(=O)O)C(=O)NCC(=O)N[C@H](C(=O)N[C@H](C(=O)N[C@@H](CCCCN)C(=O)N[C@@H](C)C(=O)NCC(=O)N1CCC[C@H]1C(=O)N[C@@H](C)C(=O)N[C@H](C(=O)N[C@@H](C)C(=O)N[C@H](C(=O)N[C@H](C(=O)NCC(=O)N[C@@H](CCC(N)=O)C(=O)N[C@@H](C)C(=O)N[C@@H](C)C(=O)N[C@H](C(=O)N[C@H](C(N)=O)[C@@H](C)CC)[C@@H](C)O)C(C)C)C(C)C)C(C)C)C(C)C)[C@@H](C)CC)[C@@H](C)CC)C(C)C)[C@@H](C)CC)[C@@H](C)CC` the hemolysis was less than 8% (mouse erythrocytes; 32 µM, 1 h, 37 °C).
With `Cc1ccccc1-c1ccc(-c2nc(-c3ccc(CN(C)CCCC(=O)O)c([18F])c3)no2)cc1C(F)(F)F` the tracer uptake was 0.07 %ID/g (rat, bone; 1 h).
`COC(=O)c1ccc2c(c1)CCC1C2=NN(c2ccc(C#N)c(Cl)c2)C1C1CCCC1` (stereo not shown) has a kinetic solubility of less than 1 µM (PBS; 90 min).
With `CNC(=O)C[C@H](Cc1ccc(F)cc1)NC(=O)[C@@H](Cc1ccc(Cl)cc1Cl)NC(=O)[C@H](N)Cc1ccccc1C#N` the remaining compound was 94% (CD-1 mouse, liver microsomes; 1 µM, time not given, epoxide hydrolase conditions).
